Experimental data gathered from unrelated publications.
Numbered parts are unrelated; each lists some results of a single study.

Sample 1
Target: Interferon regulatory factor 5, full length, phosphomimetic (IRF5, Homo sapiens, UniProt Q13568-2, residues 1-514, S451D/S453D/S456D/S462D)
Technique: protein-binding microarray
Molecule type: double-stranded DNA, one strand shown
Sample: in vitro
Tested at: 940 nM top
Setting: 60-bp whole probe
Added: salmon DNA 0.4 mg/ml
Reference: random background probes
Direction: higher = stronger binding
Quantity: fitted relative affinity
GCCTAGCACTTAGACTTCAGTCTCGATTAGTGCTAGGTCTTGATTCGCTTGACGCTGCTG: 2.85 z-score
GCCTAGCACTTAGGTTTCGGTCTCCGTTAGTGCTAGGTCTTGATTCGCTTGACGCTGCTG: 15.9 z-score
GCCTAGCACTTCGGTATCGGACTGGGTTAGTGCTAGGTCTTGATTCGCTTGACGCTGCTG: 3.32 z-score
GCCTAGCACGACGATCTCAGTATCTAGACGTGCTAGGTCTTGATTCGCTTGACGCTGCTG: 0.263 z-score

Sample 2
Target: Histone acetyltransferase KAT6A, winged helix 1, GST fusion (KAT6A, Homo sapiens, UniProt Q92794, residues 1-85)
Technique: protein binding microarray
Molecule type: double-stranded DNA, one strand shown
Sample: in vitro
Tested at: not given
Setting: 8-mer, flanks averaged, mean of 2 arrays, mostly near background
Reference: not given
Direction: higher = stronger binding
Quantity: E-score
Residues (chain): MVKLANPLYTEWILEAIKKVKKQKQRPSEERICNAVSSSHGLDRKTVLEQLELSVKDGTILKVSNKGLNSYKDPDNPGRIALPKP
CGCCGCTC: 0.423
AACGCGCT: 0.382
ATGGTTCC: -0.0281
AGTTCGGG: -0.058
ACTCAGAT: -0.169

Sample 3
Target: Ras GTPase-activating protein-binding protein 1, C-terminal RGG region (G3BP1, Homo sapiens, UniProt Q13283)
UniProt Q13283, sequence (whole entry, looked up): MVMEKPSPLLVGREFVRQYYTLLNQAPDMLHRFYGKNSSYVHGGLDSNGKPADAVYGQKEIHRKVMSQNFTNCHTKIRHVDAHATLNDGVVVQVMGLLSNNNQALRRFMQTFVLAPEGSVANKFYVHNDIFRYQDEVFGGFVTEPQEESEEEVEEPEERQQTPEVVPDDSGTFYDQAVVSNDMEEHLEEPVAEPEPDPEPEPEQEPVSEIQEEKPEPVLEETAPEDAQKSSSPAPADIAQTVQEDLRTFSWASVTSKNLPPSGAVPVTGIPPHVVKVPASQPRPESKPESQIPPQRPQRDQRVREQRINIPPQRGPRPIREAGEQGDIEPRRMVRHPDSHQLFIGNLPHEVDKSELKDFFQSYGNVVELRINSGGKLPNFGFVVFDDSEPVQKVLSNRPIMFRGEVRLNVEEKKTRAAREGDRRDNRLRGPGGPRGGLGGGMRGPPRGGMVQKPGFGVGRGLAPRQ
Technique: RNA Bind-n-Seq
Molecule type: RNA
Sample: in vitro
Tested at: 1 µM
Setting: whole 134-nt RNA, ends assumed
Added: 150 mM KCl
Reference: input library
Direction: higher = stronger binding
Quantity: log2 enrichment
Constant ends, left off below: GGGAGUUCUACAGUCCGACGAUC … UGGAAUUCUCGGGUGUCAAGG
UGUGCGGGAGACAGGCGCCAACGGCACCUCUUUCAGUGUCCGCAAGACAGCCUACUGCGACAUCCACACGCCUCCAGGUUCAGCACGCCG: -0.117
UCAAGUCCUGUGCUACACAUCGUAUGUACCGAAUCGGGCCGGGCCGGGGCCGGGGAAAGUAUUAUGUUACGCCGUUCGGAUCUGCACUUC: 0.155
CUCAAGUCCUGUGCUACACAUCGUAUGUACCGAAUCGGGGUUGGGUUGGUUGGAAAGUAUUAUGUUACGCCGUUCGGAUCUGCACUUCCA: -0.457
CAAGUCCUGUGCUACACAUCGUAUGUACCGAAUCGGGGUUUGGGGUUUGGUUUGGAAAGUAUUAUGUUACGCCGUUCGGAUCUGCACUUC: -0.772
UCAAGUCCUGUGCUACACAUCGUAUGUACCGAAUCGGGAAAGGAAAGGGAAAGGGAAAGUAUUAUGUUACGCCGUUCGGAUCUGCACUUC: -1.52

Mixed results
PhoQ, residues 284 288 289 292 302 303 SIHMAM
fold induction (PhoP, residues 12 14 15 18 19 VQGLL (Escherichia coli, UniProt P23836); Sort-seq, item: YFP reporter; E. coli; PhoQ-PhoP variant library, added: 10 µM Mg2+; reference: high Mg2+ state, higher = stronger signaling): 12.2

A few entries again (sample 2):
CGCCGCTC: 0.423
